Experimental data collected from several papers.
± gives the spread as reported.
OPRK1: Kappa-type opioid receptor (OPRK1, Homo sapiens, UniProt P41145)

Compound = CC(C)C[C@H](NC(=O)[C@H](CO)NC(=O)[C@H](CCCCN)NC(=O)[C@H](CC(C)C)NC(=O)CNC(=O)[C@H](CCCCN)NC(=O)[C@H](CCC(=O)O)NC(=O)[C@H](C)NC(=O)[C@H](CC(C)C)NC(=O)[C@H](CC(N)=O)NC(=O)[C@@H]1CCCN1C(=O)[C@H](CC(C)C)NC(=O)[C@H](Cc1ccccc1)NC(=O)CNC(=O)[C@H](NC(=O)[C@@H](N)Cc1ccc(O)cc1)[C@H](C)O)C(N)=O; target = OPRM1 (Homo sapiens, UniProt P35372); test = radioligand displacement; test system = CHO membranes; setting = 60 min, pH 7.5, 25 °C, together with: 0.25 nM [3H]DAMGO; Ki = 13 ± 0.97 nM
Compound = CC[C@H](C)[C@H](NC(=O)[C@H](CCCNC(=N)N)NC(=O)[C@H](CCCNC(=N)N)NC(=O)[C@H](CC(C)C)NC(=O)[C@H](Cc1ccccc1)NC(=O)CNC(=O)CNC(=O)[C@@H](N)Cc1ccc(O)cc1)C(=O)N[C@@H](CCCNC(=N)N)C(=O)N1CCC[C@H]1C(=O)N[C@@H](CCCCN)C(=O)O; target = OPRK1; test = ligand displacement, radioligand; Ki = 0.09 nM
Compound = CC(C)C[C@H](NC(=O)[C@H](CO)NC(=O)[C@H](CCCCN)NC(=O)[C@H](CC(C)C)NC(=O)[C@H](C)NC(=O)[C@H](CCCCN)NC(=O)[C@H](CCC(=O)O)NC(=O)C(C)(C)NC(=O)[C@H](CC(C)C)NC(=O)[C@H](CC(N)=O)NC(=O)[C@@H]1CCCN1C(=O)[C@H](CC(C)C)NC(=O)[C@H](Cc1ccccc1)NC(=O)CNC(=O)[C@H](NC(=O)[C@@H](N)Cc1ccc(O)cc1)[C@H](C)O)C(N)=O; target = OPRK1; test = ligand displacement, radioligand; setting = pH 7.5, cell membranes; Ki = 26 nM
Compound = CC[C@H](C)[C@@H]1NC(=O)[C@H](CC(=O)O)NC(=O)[C@H]([C@@H](C)O)NC(=O)[C@@H]2CSSC[C@@H]3NC(=O)[C@H](CC(C)C)NC(=O)[C@H](CC(N)=O)NC(=O)[C@H](CC(C)C)NC(=O)[C@H](CCCNC(=N)N)NC(=O)[C@H](C)NC(=O)[C@H](CCCCN)NC(=O)[C@H](CCSC)NC(=O)[C@H](CO)NC(=O)[C@H]([C@@H](C)O)NC(=O)[C@H](CCCNC(=N)N)NC(=O)[C@H](CSSC[C@H](NC(=O)[C@H]([C@@H](C)O)NC(=O)[C@H](CCCCN)NC(=O)[C@H](CCCNC(=N)N)NC3=O)C(=O)NCC(=O)N[C@@H](CO)C(=O)N[C@H](C(=O)O)CSSC[C@H](NC(=O)[C@@H](NC(=O)[C@@H](N)CCCNC(=N)N)[C@@H](C)O)C(=O)N[C@@H](CCCCN)C(=O)N[C@@H](CC(=O)O)C(=O)N[C@@H](CC(C)C)C(=O)N[C@@H]([C@@H](C)CC)C(=O)N3CCC[C@H]3C(=O)N[C@@H](C(C)C)C(=O)N[C@@H](CO)C(=O)N[C@@H](CCC(=O)O)C(=O)N2)NC(=O)[C@H](CCCNC(=N)N)NC1=O; target = KcsA-Shaker channel; test = potassium current, inhibitor, two-electrode voltage clamp; test system = Xenopus oocytes; Ki = 162 ± 13 nM
Compound = Cc1cc(O)cc(C)c1C[C@H](N)C(=O)NCC(=O)NCC(=O)N[C@@H](Cc1ccccc1)C(=O)N[C@H](C(=O)NCC(=O)N[C@@H](C)C(=O)N[C@@H](CCCNC(=N)N)C(=O)N[C@@H](CCCCN)C(=O)N[C@@H](CO)C(=O)N[C@@H](C)C(=O)N[C@@H](CCCNC(=N)N)C(=O)N[C@@H](CCCCN)C(N)=O)[C@@H](C)O; target = OPRK1; test = ligand displacement, radioligand; setting = cell membranes; Ki = 0.0417 nM
Compound = CC[C@H](C)[C@H](NC(=O)[C@H](CCCN)NC(=O)[C@H](CC(=O)O)NC(=O)[C@H](CC(C)C)NC(=O)C(C)(CC(C)C)NC(=O)[C@@H](NC(=O)[C@H](CO)NC(=O)[C@H](Cc1ccc(O)cc1)NC(=O)[C@H](CC(=O)O)NC(=O)[C@H](CO)NC(=O)[C@@H](NC(=O)[C@H](Cc1ccccc1)NC(=O)[C@@H](NC(=O)CNC(=O)[C@H](CCC(=O)O)NC(=O)C(C)(C)NC(=O)[C@@H](N)Cc1ccc(O)cc1)[C@@H](C)O)[C@@H](C)CC)[C@@H](C)CC)C(=O)N[C@@H](Cc1c[nH]cn1)C(=O)N[C@@H](CCC(N)=O)C(=O)NC(C)(C)C(=O)N[C@@H](CC(=O)O)C(=O)N[C@@H](Cc1ccccc1)C(=O)N[C@H](C(=O)N[C@@H](CCC(=O)O)C(=O)N[C@@H](Cc1ccc(O)cc1)C(=O)N[C@@H](CCCCNC(=O)COCCOCCNC(=O)COCCOCCNC(=O)CC[C@H](NC(=O)CCCCCCCCCCCCCCCCCCC(=O)O)C(=O)O)C(=O)N[C@@H](CC(C)C)C(=O)N[C@@H](CCC(=O)O)C(=O)NCC(=O)NCC(=O)N1CCC[C@H]1C(=O)N[C@@H](CO)C(=O)N[C@@H](CO)C(=O)NCC(=O)N[C@@H](C)C(=O)N1CCC[C@H]1C(=O)N1CCC[C@H]1C(=O)N1CCC[C@H]1C(=O)N[C@@H](CO)C(N)=O)C(C)C (stereo partly drawn); target = GIPR (Homo sapiens, UniProt P48546); test = cell-free assay; Ki = 0.104 nM
Compound = CC[C@H](C)[C@@H]1NC(=O)[C@H]([C@@H](C)O)NC(=O)[C@H](CCC(=O)O)NC(=O)[C@H](CO)NC(=O)[C@H](Cc2ccc(O)cc2)NC(=O)[C@@H]2CSSC[C@@H]3NC(=O)[C@H]([C@@H](C)CC)NC(=O)[C@@H]4CCCN4C(=O)[C@H](Cc4c[nH]c5ccccc45)NC(=O)[C@H](CCC(=O)O)NC(=O)[C@@H]4CSSC[C@H](NC(=O)[C@H]([C@@H](C)O)NC(=O)[C@H](CCC(=O)O)NC(=O)CNC(=O)[C@H](CSSC[C@H](NC(=O)CNC1=O)C(=O)N[C@@H]([C@@H](C)O)C(=O)N4)NC(=O)[C@@H]1CCCN1C(=O)[C@H](CC(C)C)NC(=O)[C@@H]1CCCN1C(=O)[C@H](CC(=O)O)NC(=O)CNC(=O)[C@H](CC(N)=O)NC(=O)[C@H](CCCCN)NC(=O)[C@H]([C@@H](C)O)NC3=O)C(=O)N[C@@H](Cc1ccccc1)C(=O)N[C@@H]([C@@H](C)O)C(=O)NCC(=O)N[C@@H](CCCCN)C(=O)N2; target = CNR2 (Homo sapiens, UniProt P34972); test = ligand displacement, radioligand; setting = cell membranes; Ki = 1000 nM
Compound = CC(C)C[C@H](NC(=O)[C@H](CO[C@@H]1O[C@H](CO)[C@@H](O)[C@H](O)[C@H]1O)NC(=O)[C@H](CCCCN)NC(=O)[C@H](CC(C)C)NC(=O)CNC(=O)[C@H](CCCCN)NC(=O)[C@H](CCC(=O)O)NC(=O)[C@H](C)NC(=O)[C@H](CC(C)C)NC(=O)[C@H](CC(N)=O)NC(=O)[C@@H]1CCCN1C(=O)[C@H](CC(C)C)NC(=O)[C@H](Cc1ccccc1)NC(=O)CNC(=O)[C@H](NC(=O)[C@@H](N)Cc1ccc(O)cc1)[C@H](C)O)C(N)=O; target = OPRD1 (Homo sapiens, UniProt P41143); test = ligand displacement, radioligand; setting = pH 7.5, cell membranes; Ki = 6.3 nM
Compound = CC[C@H](C)[C@@H]1NC(=O)[C@@H](NC(=O)[C@H](CO)NC(=O)[C@@H](N)CCCNC(=N)N)CSSC[C@@H](C(=O)O)NC(=O)[C@H]([C@@H](C)O)NC(=O)CNC(=O)[C@@H]2CSSC[C@@H]3NC(=O)[C@H](CCC(N)=O)NC(=O)[C@H](Cc4ccccc4)NC(=O)[C@H](C)NC(=O)[C@H]([C@@H](C)O)NC(=O)[C@H](CSSC[C@H](NC(=O)[C@H](Cc4ccccc4)NC(=O)[C@H](CO)NC(=O)[C@H](CC(C)C)NC(=O)[C@H](CCCNC(=N)N)NC(=O)[C@H](Cc4ccc(O)cc4)NC(=O)[C@H](CCCCN)NC(=O)[C@H](CCSC)NC(=O)[C@H](CO)NC(=O)[C@H](Cc4cnc[nH]4)NC(=O)[C@H](CCCCN)NC3=O)C(=O)N[C@@H](CCCNC(=N)N)C(=O)N[C@@H](CCCCN)C(=O)N[C@@H]([C@@H](C)O)C(=O)N2)NC(=O)[C@H](CCCNC(=N)N)NC(=O)[C@H](CO)NC(=O)[C@H](CCCCN)NC(=O)[C@@H]2CCCN2C(=O)[C@H]([C@@H](C)CC)NC(=O)[C@H]([C@@H](C)O)NC(=O)[C@H](CC(=O)O)NC1=O; target = KCNA3 (Homo sapiens, UniProt P22001); test = potassium current, inhibitor, two-electrode voltage clamp; test system = Xenopus oocytes; Ki = 0.05 ± 0.01 nM

Repeated from above:
Compound = CC[C@H](C)[C@H](NC(=O)[C@H](CCCN)NC(=O)[C@H](CC(=O)O)NC(=O)[C@H](CC(C)C)NC(=O)C(C)(CC(C)C)NC(=O)[C@@H](NC(=O)[C@H](CO)NC(=O)[C@H](Cc1ccc(O)cc1)NC(=O)[C@H](CC(=O)O)NC(=O)[C@H](CO)NC(=O)[C@@H](NC(=O)[C@H](Cc1ccccc1)NC(=O)[C@@H](NC(=O)CNC(=O)[C@H](CCC(=O)O)NC(=O)C(C)(C)NC(=O)[C@@H](N)Cc1ccc(O)cc1)[C@@H](C)O)[C@@H](C)CC)[C@@H](C)CC)C(=O)N[C@@H](Cc1c[nH]cn1)C(=O)N[C@@H](CCC(N)=O)C(=O)NC(C)(C)C(=O)N[C@@H](CC(=O)O)C(=O)N[C@@H](Cc1ccccc1)C(=O)N[C@H](C(=O)N[C@@H](CCC(=O)O)C(=O)N[C@@H](Cc1ccc(O)cc1)C(=O)N[C@@H](CCCCNC(=O)COCCOCCNC(=O)COCCOCCNC(=O)CC[C@H](NC(=O)CCCCCCCCCCCCCCCCCCC(=O)O)C(=O)O)C(=O)N[C@@H](CC(C)C)C(=O)N[C@@H](CCC(=O)O)C(=O)NCC(=O)NCC(=O)N1CCC[C@H]1C(=O)N[C@@H](CO)C(=O)N[C@@H](CO)C(=O)NCC(=O)N[C@@H](C)C(=O)N1CCC[C@H]1C(=O)N1CCC[C@H]1C(=O)N1CCC[C@H]1C(=O)N[C@@H](CO)C(N)=O)C(C)C (stereo partly drawn); target = GIPR (Homo sapiens, UniProt P48546); test = cell-free assay; Ki = 0.104 nM
